Measured values collected from several papers.
Each numbered part is a random draw from the data of one study; scales do not carry over between parts. Changes are numbered by the printed parent chain.

Series 1 — method: RNA Bind-n-Seq; molecule type: RNA; matrix: in vitro; tested at: 365 nM; relative to: no-protein control; direction: higher = stronger binding
Target: RNA binding protein fox-1 homolog 2, RRM domain, GST-SBP tag (RBFOX2, Homo sapiens, UniProt O43251-10, residues 100-194)
Setting: natural RNA segment, single round, ends assumed
Constant ends, left off below: GGGAGUUCUACAGUCCGACGAUC … UGGAAUUCUCGGGUGCCAA
Target sequence (chain): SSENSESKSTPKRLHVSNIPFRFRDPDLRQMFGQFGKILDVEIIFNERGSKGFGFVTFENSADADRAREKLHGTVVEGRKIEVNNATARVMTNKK
| Strand | RBNS enrichment (R) |
| --- | --- |
| UGGAUAUCAUCAAAACUAUCUUUGUGCUCCCAAAACUUGGUGUUCAUGUGUAUCCCUUUAAGUUGUUUCUCCUUGACACGCUCCACAAUGGCAAAGAUACCAAGUCAUAC | 0.55 |
| CUCUCUGUUCUUGUUAUCUUAGCCAACUAUACUGAUACCUACAGCUACAGAAAGCAGGACUAGGAACUGGAAAUAACUUUGGGUCCUGCCUUCAUUAGGACGUUCUUUUU | 0.401 |
| UGCUGCCUGGGCUUGCUCAGGUCCCCACUAAUAUUUUAAUGUGCCAAUGCCUGUGGAGAGUCUACAGGCCUAAGUGGCGGCCAUCUCAGUAAAGAUAUGGGCCAAGGAUA | 0.414 |
| CUAGAACAAGGUCGCUUCUCUUUUCCUCUUCUCUCCCAACCUGUUAACCUAGUGCUAGAUAGUCAGCUGCUGUUGCAGGUAGAAAAGCUCACCAAUGCCACAUUUGUUCA | 0.482 |
| UGGUGCCAAAACCAGGCCUCUGCUGCCGCCCUUCCUGGAGGCUGCCUAUGUUGGGGGGGACCCUGCCUCAGCUGACCCGGCCUCUCUGCCCCACCCAAGCCCAAACUUGG | 0.163 |
| GAUACCAUGGGCAUGUGCUGAGUGGAUGCACCAGGGGGCAGCACAGCUCCAUGAUUCCCAGUGGGGCCCAAGCCAGGCCAAGGUGCAGUCAGUUAAUAGCAUUGGGACAG | 1.54 |
| GAUCCUGAGGGAAGGGGCAGGGAUUUCUCCUUCUUCUUGGUCCUGGCUCCCAAGGGCUUCUGUCUUCAUCUCUGCAUGAGCUCUCCUUCCCAGAGACCAACUCUUUUUUA | 0.699 |

Series 2 — method: protein-binding microarray; molecule type: double-stranded DNA, one strand shown; matrix: in vitro; tested at: 250 nM; setting: 60-bp whole probe; with: salmon DNA 0.4 mg/ml; relative to: random background probes; direction: higher = stronger binding
Target: Interferon regulatory factor 5, full length, phosphomimetic (IRF5, Homo sapiens, UniProt Q13568-2, residues 1-514, K96S/S451D/S453D/S456D/S462D)
Constant ends, left off below: GCCTAGCAC … GTGCTAGGTCTTGATTCGCTTGACGCTGCTG
| Strand | log fluorescence [z-score] |
| --- | --- |
| TTAGATATCAGACTGAATTA | 0.492 |
| GACGGTTTCCTTCACCTGAC | 0.819 |
| TTAGGTTTCTTTTCCCTTTA | 1.67 |
| TTAGGTATCCTACTTCTTTA | 0.215 |
| TTCGATCTCAGTTTCGATTA | 9.35 |
| GACGGTATTCTTATCCTGAC | 0.0247 |

Series 3 — target: CCND1, cyclin fold, Cln2 fusion (human); method: yeast growth competition, sequencing; matrix: yeast; setting: strong parent motif; relative to: not given; direction: higher = stronger binding
Parent: SCAPER docking peptide (human); SNARRSLNFGGST; partner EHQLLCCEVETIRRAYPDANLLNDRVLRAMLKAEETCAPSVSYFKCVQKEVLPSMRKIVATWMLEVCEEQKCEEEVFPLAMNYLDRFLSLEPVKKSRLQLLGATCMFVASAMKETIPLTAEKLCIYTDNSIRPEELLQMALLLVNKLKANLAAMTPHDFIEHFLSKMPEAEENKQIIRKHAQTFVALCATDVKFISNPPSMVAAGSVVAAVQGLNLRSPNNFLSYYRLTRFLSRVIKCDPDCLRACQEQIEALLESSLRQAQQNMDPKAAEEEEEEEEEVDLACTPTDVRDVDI
| Substitution | normalised enrichment score |
| --- | --- |
| S6M | 2.32 |
| F9Y | -0.279 |
| R5I | 0.695 |
| L7Y | 0.486 |
| S12F | 1.06 |
| G11W | 0.289 |
| N8K | 0.893 |

Other studies, line by line
| Substance | target | test | system | conditions | scale | measurement | result |
| --- | --- | --- | --- | --- | --- | --- | --- |
| PhoQ, residues 284 288 289 292 302 303 AQGLTV | PhoP, residues 12 14 15 18 19 TQAIL (Escherichia coli, UniProt P23836) | Sort-seq, refers to: YFP reporter | E. coli | PhoQ-PhoP variant library, with: 10 µM Mg2+ | relative to: high Mg2+ state, higher = stronger signaling | fold induction | 3.25 |

A few entries again (series 1):
| Strand | RBNS enrichment (R) |
| --- | --- |
| GAUACCAUGGGCAUGUGCUGAGUGGAUGCACCAGGGGGCAGCACAGCUCCAUGAUUCCCAGUGGGGCCCAAGCCAGGCCAAGGUGCAGUCAGUUAAUAGCAUUGGGACAG | 1.54 |
| GAUCCUGAGGGAAGGGGCAGGGAUUUCUCCUUCUUCUUGGUCCUGGCUCCCAAGGGCUUCUGUCUUCAUCUCUGCAUGAGCUCUCCUUCCCAGAGACCAACUCUUUUUUA | 0.699 |
